# Measured values collected from several papers.
# Protocols differ between the studies behind these lines.
SMILES,organism,test,test system,conditions,how to read,measurement,result
[Cl-].[Cl-].[Mn+2].c1ccc(CN2CCNCCN(Cc3ccccc3)CCNCC2)cc1,Leishmania donovani,"parasite growth, resazurin",,"72 h, amastigote",,IC90,> 20 µM
Cc1ccc(N(C)c2cc(N(C)C3CC3)n3ncc(C#N)c3n2)cc1NC(=O)C1CC1,murine coronavirus,viral replication,MHV-nLuc,concentration not given,,antiviral activity,inactive
CC1(C)CC[C@]2(CO)CC[C@]3(C)C(=CC[C@@H]4[C@@]5(C)CCCNC(C)(C)[C@@H]5CC[C@]43C)[C@@H]2C1,Human papillomavirus 11,viral replication,C-33 A,,reference: CC50 over EC50,selectivity index,< 3
COc1ccc(-c2oc3ccc(-c4cc(OC)c(OC)c(OC)c4)cc3c2C#CC(C)(C)O)cc1,hepatitis C virus,HCV replicon replication,HCV genotype 1b subgenomic replicon cells,10 µM,reference: DMSO,remaining activity,78.7%
CN1CC(=O)N=C1N.C[C@H](CCC(=O)O)[C@H]1CC[C@H]2[C@@H]3CC[C@@H]4C[C@H](O)CC[C@]4(C)[C@H]3C[C@H](O)[C@]12C,Shigella flexneri,,ATCC 9199,"1 mg per disc, 18 to 24 h, 37 °C",,antibacterial activity,inactive
CCN1CCNC1=[S+][Ag-3]([O][N+](=O)[O-])([P+](c1ccccc1)(c1ccccc1)c1ccccc1)[P+](c1ccccc1)(c1ccccc1)c1ccccc1,Staphylococcus epidermidis,,"MTCC 435, DMSO","0.1 mL of 50 mg/mL in 8 mm well, 18 to 24 h",,inhibition zone diameter,30 mm
CC#N.[Cl][Mn-2]([Cl])([Cl])[Cl].[Mn+2].c1ccc(CN2CCCN3CCCN(CCCN(Cc4ccccc4)CC3)CC2)cc1,Leishmania donovani,"parasite growth, resazurin",,"72 h, amastigote",,IC90,2.68 µM
[O-][N+]1=C(c2ccc(Cl)cc2)C2=NCCCCN2c2ccccc21,Finegoldia magna,,,,,MIC,0.25 µg/mL
CCC(NC(=O)NNS(=O)(=O)c1ccc(C)cc1)(C(F)(F)F)C(F)(F)F,human alphaherpesvirus 1,,Vero,concentration not given,,antiviral activity,inactive
[Cl-].[Cl-].[Mn+2].c1ccc(CN2CCCNCCN(Cc3ccccc3)CCCNCC2)cc1,Leishmania donovani,parasite growth,THP-1 macrophages,intracellular amastigotes,,IC90,12.7 µM
Oc1cc(C(F)(F)F)ccc1-c1nc2c(C(F)(F)F)cc(C(F)(F)F)cc2[nH]1,Acinetobacter baumannii,colistin potentiator,"AB 3941, colistin-resistant",5 µM,,MIC of colistin,0.5 µg/mL
CC(=O)[O-].F[P-](F)(F)(F)(F)F.[Co+2].c1ccc(CN2CCCN3CCN(CCCN(Cc4ccccc4)CC3)CC2)cc1,Leishmania donovani,"parasite growth, resazurin",,"72 h, promastigote",,IC90,> 20 µM
Nc1ccn(C[C@@H](CO)OCP(=O)(O)OCCCS(=O)(=O)CCCCCCCCCCCCC2CCC2)c(=O)n1,human alphaherpesvirus 2,,"HFF, G",,reference: CC50 over EC50,selectivity index,498

# Repeated from above:
SMILES,organism,test,test system,conditions,how to read,measurement,result
[O-][N+]1=C(c2ccc(Cl)cc2)C2=NCCCCN2c2ccccc21,Finegoldia magna,,,,,MIC,0.25 µg/mL
CCC(NC(=O)NNS(=O)(=O)c1ccc(C)cc1)(C(F)(F)F)C(F)(F)F,human alphaherpesvirus 1,,Vero,concentration not given,,antiviral activity,inactive
